Assay results from different studies.
“And” joins repeats or separate records; there may be more than shown. ± gives the spread as reported.

NNC(=O)c1ccccc1 — normalised absorbance (hydrazine ligation kinetics, absorbance; concentration not given, 50 s, together with: 2-formylphenylboronic acid): 0.798
CC(C)(C)C(=O)OCOP(=O)(OCOC(=O)C(C)(C)C)C1CCCN(O)C1=O (stereo not drawn) — CC50 (RPMI-8226): > 100 µM
COc1ccccc1-c1n[nH]c2nc(N[C@H]3CC[C@H](NS(=O)(=O)CC(C)C)CC3)ncc12 — relative abundance (bead binding, competition bead pull-down, refers to: LINJ.31.1230; Leishmania donovani extract; 10 µM; relative to: vehicle): 0.71
Cc1cc(C(=O)Nc2nc3cccc(C)c3n2[C@H]2CCCCN(C(=O)/C=C/CN(C)C)C2)ccn1 — cell growth (Trypanosoma brucei brucei; 2T1 parental; 10 x EC50, 36 h; relative to: time 0 h): 18.7% and 16.7% and 20%
Cc1cc(Oc2nc(N3CC[C@@H](c4ccncc4)C3)ncc2F)[nH]n1 — IC50 (MG-63; cell proliferation; bone cancer): > 100 µM
O=C1NC2(CC2)COc2ncc(F)cc2[C@H]2COCCN2c2ccn3ncc1c3n2 — organ weight (Sprague-Dawley rat, female, ovaries; oral, 5 mg/kg/day, 4 weeks): 0.129 ± 0.021 g
Cc1ccc(N2CC3CC(C2)N3C)cc1C(=O)NC1(c2ccc3c4c(cccc24)C(=O)N3C)CC1 — inhibition (pigeon-PLpro; enzyme activity, inhibitor; 100 µM): 35.5% and 40.5%
CCOC(=O)C1(Cc2c(F)cccc2F)Oc2cc(F)ccc2N(Cc2c(F)cccc2F)C1=O (stereo not drawn) — inhibition (Arabidopsis thaliana; stem length, petri dish germination; Col-0, 1/2 MS medium; 200 µg/mL, 7 days, 22 °C, dark): 58.9%
CN1C(=O)C(C2C3=C(CC(C)(C)CC3=O)Oc3ccc([N+](=O)[O-])cc32)C(=O)N(C)C1=O (stereo not drawn) — mRNA level (3T3-L1 adipocytes; qPCR, refers to: FAS; IC20, 14 days; relative to: untreated mature adipocytes): decreased
CC(C)CC(C(=O)N1CC2(CC1C#N)C(=O)Nc1ccccc12)N(C)C(=O)c1cc2c(F)cc(F)c(F)c2[nH]1 (stereo not drawn) — inhibition (human coronavirus 229E; viral replication; MRC-5; 0.0125 µM): 100%
O=C(O)c1ccc(-c2nc(-c3ccccc3Cl)c3sccn23)cc1 — mean fluorescence intensity (HEL; flow cytometry, refers to: surface CD61; 0.1 mM; higher = more expression): 35900 a.u.
COc1ccccc1-c1n[nH]c2nc(NC3CCN(C(=O)Cc4ccc(F)cc4F)CC3)ncc12 — relative abundance (bead binding, competition bead pull-down, refers to: LMJF.36.6910; Leishmania donovani axenic amastigote extract; 10 µM; relative to: vehicle): 1.17

Repeated from above:
NNC(=O)c1ccccc1 — normalised absorbance (hydrazine ligation kinetics, absorbance; concentration not given, 50 s, together with: 2-formylphenylboronic acid): 0.798
